{"data": "Assay results gathered from unrelated publications", "note": "Each line is one published result; not all experiments were run side by side. Numbers after ± are the reported error."}
{"Structure (SMILES)": "CC(C)C[C@H](NC(=O)[C@H](Cc1ccc(O)cc1)NC(=O)[C@@H](CCCNC(=N)N)NC(=O)[C@@H](CO)NC(=O)[C@H](Cc1ccccc1)NC(=O)[C@H](CC1CCCCC1)NC(=O)[C@H](CC(=O)O)NC(=O)CN1CCCN2CCN(CCCN(CC(=O)O)CC2)CC1)C(=O)N[C@@H](Cc1c[nH]c2ccccc12)C(=O)N[C@@H](CO)C(=O)O [copper-64 labelled]", "test system": "female NMRI nude mice, lung", "setting": "1 h p.i.", "tissue uptake": "5.5 ± 1.4 %ID/g"}
{"Structure (SMILES)": "Cc1cc(-c2ccc(NC(=O)[C@H](CCCCNC(=O)CCOCCOCCC(=O)N[C@H](Cc3ccccc3)C(=O)N[C@H]3CSSC[C@@H](C(=O)N[C@H](C(=O)O)[C@@H](C)O)NC(=O)[C@H]([C@@H](C)O)NC(=O)[C@H](CCCCN)NC(=O)[C@@H](Cc4c[nH]c5ccccc45)NC(=O)[C@H](Cc4ccc(O)cc4)NC3=O)NC(=O)CN3CCN(CC(=O)O)CCN(CC(=O)O)CCN(CC(=O)O)CC3)c(C)c2)ccc1N=Nc1ccc2c(S(=O)(=O)O)cc(S(=O)(=O)O)c(N)c2c1O [lutetium-177 labelled]", "test system": "BALB/c nude mice, male, AR-42J tumour, kidneys", "setting": "intravenous, 1.48 MBq", "tissue uptake": "12.8 ± 5.25 %ID/g"}
{"Structure (SMILES)": "N=C(N)NCCC[C@@H]1NC(=O)[C@H](CCCCNC(=O)CNC(=O)CNC(=O)CNC(=O)CC[C@H](NC(=O)CNC(=O)CNC(=O)CNC(=O)CN2CCN(CC(=O)O)CCN(CC(=O)O)CCN(CC(=O)O)CC2)C(=O)NCC(=O)NCC(=O)NCC(=O)NCCCC[C@@H]2NC(=O)[C@@H](Cc3ccccc3)NC(=O)[C@H](CC(=O)O)NC(=O)CNC(=O)[C@H](CCCNC(=N)N)NC2=O)NC(=O)[C@@H](Cc2ccccc2)NC(=O)[C@H](CC(=O)O)NC(=O)CNC1=O [indium-111 labelled]", "test system": "female athymic nu/nu mice, lungs", "setting": "intravenous, 1 h", "tissue uptake": "1.71 ± 0.48 %ID/g"}
{"Structure (SMILES)": "CC(C)C[C@@H](NC(=O)[C@@H](CCC(=O)O)NC(=O)[C@@H](CC(C)C)NC(=O)[C@@H](CC(C)C)NC(=O)[C@@H](CC(C)C)NC(=O)[C@H](NC(=O)[C@@H](CCC(=O)O)NC(=O)[C@H](NC(=O)[C@H]1CCCN1C(=O)[C@@H](Cc1ccccc1)NC(=O)[C@@H](CC(C)C)NC(=O)[C@@H](Cc1c[nH]c2ccccc12)NC(=O)[C@@H](CCC(=O)O)NC(=O)[C@@H](CC(C)C)NC(=O)[C@@H](Cc1ccc(O)cc1)NC(=O)[C@@H](CCCNC(=N)N)NC(=O)[C@@H](C)NC(=O)[C@@H](Cc1c[nH]c2ccccc12)NC(=O)[C@H]1CCCN1C(=O)[C@@H](CC(N)=O)NC(=O)[C@@H](CCC(N)=O)NC(=O)[C@@H](CCC(=O)O)NC(=O)[C@@H](CCC(=O)O)NC(=O)[C@@H](CSC1CC(=O)N(CCNC(=O)CN2CCN(CC(=O)O)CCN(CC(=O)O)CC2)C1=O)NC(=O)[C@@H](C)N)[C@H](C)O)[C@H](C)O)C(=O)O (stereo partly shown) [copper-64 labelled]", "test system": "BALB/c mice, female, 4T1 orthotopic tumour, large intestine", "setting": "intravenous, 4 h", "tissue uptake": "8.19 ± 0.85 %ID/g"}
{"Structure (SMILES)": "CCCC[C@H](NC(=O)CCCCCCCNC(=O)CN1CCN(CC(=O)O)CCN(CC(=O)O)CC1)C(=O)N[C@H]1CC(=O)NCCCC[C@@H](C(N)=O)NC(=O)[C@H](Cc2c[nH]c3ccccc23)NC(=O)[C@H](CCCNC(=N)N)NC(=O)[C@@H](Cc2ccccc2)NC(=O)[C@H](Cc2c[nH]cn2)NC1=O [copper-64 labelled]", "test system": "C57 mice, brain", "setting": "intravenous, 0.37 MBq, 0.5 h", "tissue uptake": "0.2 ± 0.08 %ID/g"}
{"Structure (SMILES)": "N=C(N)NCCC[C@@H]1NC(=O)[C@H](CCCCNC(=O)CNC(=O)CNC(=O)CNC(=O)CC[C@H](NC(=O)CNC(=O)CNC(=O)CNC(=O)CC[C@H](NC(=O)CN2CCN(CC(=O)O)CCN(CC(=O)O)CCN(CC(=O)O)CC2)C(=O)NCC(=O)NCC(=O)NCC(=O)N[C@@H](CCC(=O)NCC(=O)NCC(=O)NCC(=O)NCCCC[C@@H]2NC(=O)[C@@H](Cc3ccccc3)NC(=O)[C@H](CC(=O)O)NC(=O)CNC(=O)[C@H](CCCNC(=N)N)NC2=O)C(=O)NCC(=O)NCC(=O)NCC(=O)NCCCC[C@@H]2NC(=O)[C@@H](Cc3ccccc3)NC(=O)[C@H](CC(=O)O)NC(=O)CNC(=O)[C@H](CCCNC(=N)N)NC2=O)C(=O)NCC(=O)NCC(=O)NCC(=O)NCCCC[C@@H]2NC(=O)[C@@H](Cc3ccccc3)NC(=O)[C@H](CC(=O)O)NC(=O)CNC(=O)[C@H](CCCNC(=N)N)NC2=O)NC(=O)[C@@H](Cc2ccccc2)NC(=O)[C@H](CC(=O)O)NC(=O)CNC1=O [indium-111 labelled]", "test system": "female athymic nu/nu mice, blood", "setting": "intravenous, 1 h", "tissue uptake": "0.25 ± 0.04 %ID/g"}
{"Structure (SMILES)": "CC(C)C[C@@H](NC(=O)[C@@H](CC(C)C)NC(=O)[C@@H](CC(=O)O)NC(=O)[C@@H](CC(C)C)NC(=O)[C@@H](CC(C)C)NC(=O)[C@@H](CC(C)C)NC(=O)[C@H](NC(=O)[C@@H](CC(=O)O)NC(=O)[C@H](NC(=O)[C@H]1CCCN1C(=O)[C@@H](Cc1ccccc1)NC(=O)[C@@H](CC(C)C)NC(=O)[C@@H](CC(C)C)NC(=O)[C@@H](CC(=O)O)NC(=O)[C@@H](CC(C)C)NC(=O)[C@@H](Cc1ccc(O)cc1)NC(=O)[C@@H](C)NC(=O)[C@@H](CCCNC(=N)N)NC(=O)[C@@H](Cc1c[nH]c2ccccc12)NC(=O)[C@H]1CCCN1C(=O)[C@@H](CC(N)=O)NC(=O)[C@@H](CCC(N)=O)NC(=O)[C@@H](CC(=O)O)NC(=O)[C@@H](CC(=O)O)NC(=O)[C@@H](CS)NC(=O)[C@@H](C)NC(=S)Nc1ccc(CC2CN(CC(=O)O)CCN(CC(=O)O)CCN2CC(=O)O)cc1)[C@H](C)O)[C@H](C)O)C(=O)N[C@H](Cc1c[nH]c2ccccc12)C(=O)O (stereo partly shown) [fluorine-18 labelled]", "test system": "BALB/c mice, female, 4T1 orthotopic tumour, large intestine", "setting": "intravenous, 4 h", "tissue uptake": "22.1 ± 2.46 %ID/g"}
{"Structure (SMILES)": "CC(C)C[C@H](NC(=O)CN1CCN(CC(=O)O)CCN(CC(=O)O)CC1)C(=O)N[C@@H](CC(C)C)C(=O)N[C@@H](CC(C)C)C(=O)N[C@@H](CC(C)C)C(=O)N[C@@H](CCCNC(=N)N)C(=O)N[C@H](C(=O)N[C@@H](CCCCN)C(=O)N[C@@H](CCCNC(=N)N)C(N)=O)C(C)C [copper-64 labelled]", "test system": "CD1 mice, kidney", "setting": "intravenous, 15 min", "tissue uptake": "50 ± 20 %ID/g"}
{"Structure (SMILES)": "CSCC[C@H](NC(=O)[C@H](CC(C)C)NC(=O)[C@H](Cc1c[nH]cn1)NC(=O)CNC(=O)[C@@H](NC(=O)[C@H](C)NC(=O)[C@H](Cc1c[nH]c2ccccc12)NC(=O)[C@H](CCC(N)=O)NC(=O)CCOCCOCCOCCOCCNC(=O)CN1CCN(CC(=O)O)CCN(CC(=O)O)CCN(CC(=O)O)CC1)C(C)C)C(N)=O [indium-111 labelled]", "test system": "male Swiss nu/nu mice, PC-3 xenograft, blood", "setting": "intravenous, 10 pmol, 1 h post injection, 111In or 99mTc labelled", "tissue uptake": "0.3 ± 0.1 %ID/g"}
{"Structure (SMILES)": "N=C(N)NCCC[C@@H]1NC(=O)[C@H](CCCCNC(=O)CC[C@H](NC(=O)CC[C@H](NC(=O)CN2CCN(CC(=O)O)CCN(CC(=O)O)CCN(CC(=O)O)CC2)C(=O)N[C@@H](CCC(=O)NCCCC[C@@H]2NC(=O)[C@@H](Cc3ccccc3)NC(=O)[C@H](CC(=O)O)NC(=O)CNC(=O)[C@H](CCCNC(=N)N)NC2=O)C(=O)NCCCC[C@@H]2NC(=O)[C@@H](Cc3ccccc3)NC(=O)[C@H](CC(=O)O)NC(=O)CNC(=O)[C@H](CCCNC(=N)N)NC2=O)C(=O)NCCCC[C@@H]2NC(=O)[C@@H](Cc3ccccc3)NC(=O)[C@H](CC(=O)O)NC(=O)CNC(=O)[C@H](CCCNC(=N)N)NC2=O)NC(=O)[C@@H](Cc2ccccc2)NC(=O)[C@H](CC(=O)O)NC(=O)CNC1=O [indium-111 labelled]", "test system": "female athymic nu/nu mice, blood", "setting": "intravenous, 72 h", "tissue uptake": "0.07 ± 0.02 %ID/g"}
{"Structure (SMILES)": "CCCC[C@H](NC(=O)COCCOCCNC(=O)CN1CCN(CC(=O)O)CCN(CC(=O)O)CC1)C(=O)N[C@H]1CC(=O)NCCCC[C@@H](C(N)=O)NC(=O)[C@H](Cc2c[nH]c3ccccc23)NC(=O)[C@H](CCCNC(=N)N)NC(=O)[C@@H](Cc2ccccc2)NC(=O)[C@H](Cc2c[nH]cn2)NC1=O [copper-64 labelled]", "test system": "C57 mice, kidney", "setting": "intravenous, 0.37 MBq, 4 h", "tissue uptake": "3.27 ± 0.52 %ID/g"}
{"Structure (SMILES)": "CN1C(=O)[C@@H](Cc2ccc(O)cc2)NC(=O)CNC(=O)[C@H](Cc2ccc3ccccc3c2)NC(=O)[C@H](CCCNC(=N)N)NC(=O)[C@H]1CCCNC(=O)c1ccc(CNC(=O)CN2CCN(CC(=O)O)CCN(CC(=O)O)CCN(CC(=O)O)CC2)cc1 [gallium-68 labelled]", "test system": "SCID mice, lymphoma xenograft, intestine", "setting": "intravenous, 1 h", "tissue uptake": "1.1 ± 0.1 %ID/g"}
{"Structure (SMILES)": "CCCC[C@H](NC(=O)CNC(=O)CNC(=O)CN1CCN(CC(=O)O)CCN(CC(=O)O)CC1)C(=O)N[C@H]1CC(=O)NCCCC[C@@H](C(N)=O)NC(=O)[C@H](Cc2c[nH]c3ccccc23)NC(=O)[C@H](CCCNC(=N)N)NC(=O)[C@@H](Cc2ccccc2)NC(=O)[C@H](Cc2c[nH]cn2)NC1=O [technetium-99m labelled]", "test system": "C57 mice, whole blood", "setting": "intravenous, 0.037 MBq, 24 h", "tissue uptake": "0.03 ± 0.05 %ID/g"}
{"note": "Repeated from above:"}
{"Structure (SMILES)": "CN1C(=O)[C@@H](Cc2ccc(O)cc2)NC(=O)CNC(=O)[C@H](Cc2ccc3ccccc3c2)NC(=O)[C@H](CCCNC(=N)N)NC(=O)[C@H]1CCCNC(=O)c1ccc(CNC(=O)CN2CCN(CC(=O)O)CCN(CC(=O)O)CCN(CC(=O)O)CC2)cc1 [gallium-68 labelled]", "test system": "SCID mice, lymphoma xenograft, intestine", "setting": "intravenous, 1 h", "tissue uptake": "1.1 ± 0.1 %ID/g"}
